Measured values from different studies.
Protocols differ between the studies behind these lines. Several values in a cell are separate wells, animals, samples, runs or records. Numbers after ± are the reported error.

Structure (SMILES) | test | system | conditions | how to read | endpoint | result
Cc1nn(-c2nc3c(F)cc(F)cc3s2)c(O)c1C(c1ccc(C(F)(F)F)cc1)c1c(C)nn(-c2nc3c(F)cc(F)cc3s2)c1O |  | ICR mouse, plasma | intraperitoneal, 10 mg/kg |  | MRT(0-inf) observed | 11.9 h and 7.44 h and 9.66 h
C=CC(=O)Nc1cc(Nc2nccc(-c3cn(C)c4ccccc34)n2)c(OC)cc1N(C)CCNC | storage stability | human dried blood spot | 270 ng/mL, 5 h, on ice, HQC level |  | remaining amount | 94.3%
C[C@@H](C(=O)O)c1ccc(-c2ccccc2)c(F)c1 | HPLC | solution | concentration not given, 2 h, room temperature |  | relative change of HPLC peak area | 0.98%
COc1cccc(OC)c1-c1cc(C(=O)NC2(C(=O)O)C3CC4CC(C3)CC2C4)nn1-c1ccc(C(=O)N(C)CCCN(C)CCCN(C)C(=O)[C@H](CCCCNC(=O)[C@H](CC(C)C)NC(=O)C2OC2C(=O)O)NC(=O)CN2CCN(CC(=O)[O-])CCN(CC(=O)[O-])CCN(CC(=O)[O-])CC2)cc1C(C)C.[177Lu+3] (mixture of isomers) |  | mouse, HT-29 xenograft | 24 h post injection, biodistribution | reference: tumour over heart uptake | tumour-to-heart ratio | 31.7
CC[C@H](C)[C@@H]1NC(=O)[C@H](Cc2ccc(O)cc2)NC(=O)CCCSC[C@@H](C(=O)N(CC(=O)N[C@@H](CC(C)C)C(=O)NCC(N)=O)Cc2ccc(F)cc2)NC(=O)[C@H](CC(N)=O)NC(=O)[C@H](CCC(N)=O)NC1=O |  | human | intranasal, 5 µg single dose |  | serious adverse events | 0%
OC1(C(F)(F)F)CCN(c2nc(Nc3ccnc(C(F)(F)F)c3)nc(-c3cccc(C(F)(F)F)n3)n2)C1 (centres unmarked) |  | monkey, plasma | oral, 10 mg/kg |  | Tmax | 6.67 ± 2.07 h
O=C(Nc1cnccc1-c1ccc([18F])cc1)c1ccnc(NC(=O)C2CC2)c1 |  | mice, transgenic, GSK-3β, early-stage, heart | intravenous, dose not given, 120 min |  | SUV | 0.2
Fc1cncc(-c2ccc3[nH]c4ncnc(N[C@H]5CC[C@H](N6CCOCC6)CC5)c4c3c2)c1 |  | ICR mice, plasma | oral, 10 mg/kg |  | AUC(0-t) | 387 ± 254 ng·h/mL
Cc1ccc(CN2C(=O)/C(=N\c3ccc(Cl)cc3Br)c3ccccc32)cc1 |  | mouse, blood | 200 mg/kg |  | haematocrit | 38.2 ± 0.67%
CN1CCC[C@]1(C)/C=C/S(=O)(=O)NC(=O)Nc1c2c(cc3c1C(O)CC3)CCC2 (some centres unmarked) |  | human, plasma | oral, 12.5 mg twice daily of parent drug, day 14, metabolite of dosed drug |  | Tmax at second steady-state dose | 3.5 h
O=C(CN1CCN(CC(=O)NCc2ncccc2O)CCN(CC(=O)NCc2ncccc2O)CCN(CC(=O)NCc2ncccc2O)CC1)NCc1ncccc1O.[177Lu+3] |  | Sprague-Dawley rat, spleen | intravenous (tail vein), dose not given, 2 h |  | tissue uptake | 1.35 ± 0.443 % injected dose/g
CCCC[C@H]1C(=O)N(C)[C@@H](CCCC)C(=O)N[C@@H](CCCCNC(=S)Nc2ccc(CN3CCN(CC(=O)O)CCN(CC(=O)O)CC3)cc2)C(=O)N[C@H](C(=O)NCC(N)=O)CSCC(=O)N[C@@H](Cc2ccc(O)cc2)C(=O)N(C)[C@@H](C)C(=O)N[C@@H](CC(N)=O)C(=O)N2CCC[C@H]2C(=O)N[C@@H](Cc2cnc[nH]2)C(=O)N[C@@H](CCC(=O)O)C(=O)N2C[C@H](O)C[C@H]2C(=O)N[C@@H](Cc2c[nH]c3ccccc23)C(=O)N[C@@H](CO)C(=O)N[C@@H](Cc2cn(CC(=O)O)c3ccccc23)C(=O)N1C [fluorine-18 labelled] |  | H226 subcutaneous xenograft, NSG mouse, tumour | intravenous, 60 min |  | tumour uptake | 5.12 ± 2.57 %ID/g
C=C(NC(=O)c1csc(-c2nc3c(cc2O)-c2nc(cs2)C(=O)NC(C(C)O)C(=O)NC(=C(C)OC)c2nc(cs2)C(=O)NC2c4nc(cs4)C(=O)NC(COC(=O)c4c5c6c(cccc6n4O)COC(=O)C(OC4CC(C)(O)C(N(C)C)C(C)O4)C2OC5)c2nc-3cs2)n1)C(N)=O (centres unmarked) |  | Sprague-Dawley rat, both sexes, plasma | intravenous infusion, 6 mg/kg, multiple doses, day 7 |  | Vz/F | 38.8 L/kg
O=C(NS(=O)(=O)c1cccs1)c1cc2ccccc2n1Cc1ccc(Br)c2ccccc12 |  | KM mouse, chronic hyperuricaemia model | dose not given, day 11 |  | body weight | 31.4 g and 30.4 g and 30.8 g and 26.8 g and 33.6 g and 30.6 g
CN1CCC[C@]1(C)/C=C/S(=O)(=O)NC(=O)Nc1c2c(cc3c1CCC3)CC=C2 |  | human, plasma | oral, 50 mg twice daily of parent drug, day 14, metabolite of dosed drug |  | Tmax at second steady-state dose | 4 h
CCCCN1C(=O)c2cccc3c(NCCCCCN4CCOCC4)ccc(c23)C1=O |  | dichloromethane |  |  | fluorescence lifetime | 10.4 ns

Structure (SMILES) | test | system | conditions | how to read | endpoint | result
CC(C)(O)c1ncc([S@](N)(=O)=NC(=O)Nc2c3c(cc4c2CCC4)CCC3)s1 | refers to: investigations | healthy human | oral, 100 mg, CS formulation, fasted |  | subjects with TEAEs | 20%
CCCC[C@H](NC(=O)CNC(=O)CNC(=O)[C@H](CCCCNC(=O)[C@H](CC(N)=O)NC(=O)C(C)c1ccc(CC(C)C)cc1)NC(=O)CN1CCN(CC(=O)O)CCN(CC(=O)O)CCN(CC(=O)O)CC1)C(=O)N[C@H]1CC(=O)NCCCC[C@@H](C(N)=O)NC(=O)[C@H](Cc2c[nH]c3ccccc23)NC(=O)[C@H](CCCNC(=N)N)NC(=O)[C@@H](Cc2ccccc2)NC(=O)[C@H](Cc2c[nH]cn2)NC1=O (some centres unmarked) [lutetium-177 labelled] |  | C57 mice, tumour | 2 h | reference: blood | tumour-to-tissue ratio | 54.3
CN[C@H](CC(C)C)C(=O)N[C@H]1C(=O)N[C@@H](CC(N)=O)C(=O)N[C@H]2C(=O)N[C@H]3C(=O)N[C@H](C(=O)N[C@H](C(=O)N[C@H](CCCNC(=N)N)C(N)=O)c4cc(O)cc(O)c4-c4cc3ccc4O)[C@H](O)c3ccc(c(Cl)c3)Oc3cc2cc(c3O[C@@H]2O[C@H](CO)[C@@H](O)[C@H](O)[C@H]2O[C@H]2C[C@](C)(N)[C@H](O)[C@H](C)O2)Oc2ccc(cc2Cl)[C@H]1O |  | female CD-1 mouse, plasma | intravenous, 15 mg/kg, single dose |  | Cmax | 36700 ng/mL
C=CC(=O)Nc1cc(Nc2nccc(-c3c[nH]c4ccccc34)n2)c(OC)cc1N(C)CCN(C)C | storage stability | human plasma | 30 d, on ice, HQC level |  | recovery | 53.1%
C=CC(=O)Nc1cc(Nc2nccc(-c3cn(C4CC4)c4ccccc34)n2)c(OC)cc1N(C)CCNC | autosampler stability | rat plasma | 40 ng/mL, 4 h, 10 °C | reference: nominal concentration | relative error | 2.1%
NCCCC[C@H](NC(=O)[C@H](Cc1c[nH]c2ccccc12)NC(=O)[C@H](Cc1c[nH]c2ccccc12)NC(=O)[C@@H](N)Cc1c[nH]c2ccccc12)C(N)=O |  | DOPC vesicles | 2 h |  | Trp emission maximum | 355 nm
O=C(Nc1cnccc1-c1ccc([18F])nc1)c1ccnc(NC(=O)C2CC2)c1 |  | mice, transgenic, GSK-3β, early-stage, urine | intravenous, dose not given, 120 min |  | SUV | 5.47
Cc1nc(N)nc2c1C(=O)N[C@@H](c1ccc(F)cc1-c1cccc(O[11CH3])n1)C2 | ex vivo biodistribution | healthy mice, spleen | 60 min post-injection, baseline, vehicle pre-treatment |  | SUV | 5.2 ± 1
C[N+](C)(CCOCCOCCOCCNC(=S)Nc1ccc(C[C@H]2CN(CC(=O)[O-])CCN(CC(=O)[O-])CCN2CC(=O)[O-])cc1)C[c-]1cccc1.[64Cu+2].[Fe+2].c1cc[cH-]c1 | pretargeted biodistribution | nude mouse, BxPC-3 xenograft | 8 h post-radioligand, 72 h lag time |  | tumour uptake | 3.1 ± 0.6 %ID/g
Cc1cccc(Cn2ncc3c4cc(F)c(CN(C)C)cc4n(C)c3c2=O)n1 |  | Dutch-belted rabbit, plasma | intravitreal, 1 µM vitreous, 14.00 days |  | plasma concentration | not detected
CCCC[C@H](NC(=O)CNC(=O)CNC(=O)[C@H](CCCCNC(=O)[C@H](CC(=O)O)NC(=O)C(C)c1ccc(CC(C)C)cc1)NC(=O)CN1CCN(CC(=O)O)CCN(CC(=O)O)CCN(CC(=O)O)CC1)C(=O)N[C@H]1CC(=O)NCCCC[C@@H](C(N)=O)NC(=O)[C@H](Cc2c[nH]c3ccccc23)NC(=O)[C@H](CCCNC(=N)N)NC(=O)[C@@H](Cc2ccccc2)NC(=O)[C@H](Cc2c[nH]cn2)NC1=O (some centres unmarked) [lutetium-177 labelled] |  | C57 mouse | intravenous, 2 h, added: NDP-MSH blockade | reference: tumour over kidney | tumour to tissue ratio | 0.21
Cc1cc(C)n(CCN(CCN)CCCCCCNC(=O)[C@@H](N)Cc2c[nH]cn2)n1.[99Tc+].[C-]#[O+].[C-]#[O+].[C-]#[O+] |  | BALB/c nude mice A549 xenograft | intravenous, 15 min | reference: tumour over muscle | tumour-to-tissue ratio | 3.8
COc1cccc(OC)c1-c1cc(C(=O)NC2(C(=O)O)C3CC4CC(C3)CC2C4)nn1-c1ccc(C(=O)NCCNC(=O)[C@H](CCCCNC(=O)[C@H](CC(C)C)NC(=O)C2OC2C(=O)O)NC(=O)CN2CCN(CC(=O)[O-])CCN(CC(=O)[O-])CCN(CC(=O)[O-])CC2)cc1C(C)C.[177Lu+3] (mixture of isomers) |  | mouse, HT-29 xenograft | 4 h post injection, biodistribution | reference: tumour over heart uptake | tumour-to-heart ratio | 6.48
C#CC(C)NC(=O)C(CC(C)(C)F)NC(c1ccc(-c2ccc(S(C)(=O)=O)cc2)cc1)C(F)(F)F (centres unmarked) |  | MES buffer | 100 µM, 23 h, pH 5.5, 37 °C, added: cysteine 10 mM |  | cysteine adduct formation | < 1%
CC1(F)C(O)C(CO)OC1n1cnc2c(=O)[nH]c(N)nc21 (centres unmarked) |  | healthy adult humans, plasma | oral, 550 mg once daily, day 6, fasted, given alone |  | Cmax, arithmetic mean | 235 ng/mL
COCC1CN(C2CCN(c3cc(OC)c(Nc4ncc(Br)c(Nc5ccc6c(c5P(C)(C)=O)OCCO6)n4)cc3C)CC2)C1 |  | human, plasma | oral, 90 mg, multiple doses, patients |  | AUC | 21200 ng·h/mL

For quick reference, copied from above:
Structure (SMILES) | test | system | conditions | how to read | endpoint | result
CCCC[C@H]1C(=O)N(C)[C@@H](CCCC)C(=O)N[C@@H](CCCCNC(=S)Nc2ccc(CN3CCN(CC(=O)O)CCN(CC(=O)O)CC3)cc2)C(=O)N[C@H](C(=O)NCC(N)=O)CSCC(=O)N[C@@H](Cc2ccc(O)cc2)C(=O)N(C)[C@@H](C)C(=O)N[C@@H](CC(N)=O)C(=O)N2CCC[C@H]2C(=O)N[C@@H](Cc2cnc[nH]2)C(=O)N[C@@H](CCC(=O)O)C(=O)N2C[C@H](O)C[C@H]2C(=O)N[C@@H](Cc2c[nH]c3ccccc23)C(=O)N[C@@H](CO)C(=O)N[C@@H](Cc2cn(CC(=O)O)c3ccccc23)C(=O)N1C [fluorine-18 labelled] |  | H226 subcutaneous xenograft, NSG mouse, tumour | intravenous, 60 min |  | tumour uptake | 5.12 ± 2.57 %ID/g
C=C(NC(=O)c1csc(-c2nc3c(cc2O)-c2nc(cs2)C(=O)NC(C(C)O)C(=O)NC(=C(C)OC)c2nc(cs2)C(=O)NC2c4nc(cs4)C(=O)NC(COC(=O)c4c5c6c(cccc6n4O)COC(=O)C(OC4CC(C)(O)C(N(C)C)C(C)O4)C2OC5)c2nc-3cs2)n1)C(N)=O (centres unmarked) |  | Sprague-Dawley rat, both sexes, plasma | intravenous infusion, 6 mg/kg, multiple doses, day 7 |  | Vz/F | 38.8 L/kg
O=C(NS(=O)(=O)c1cccs1)c1cc2ccccc2n1Cc1ccc(Br)c2ccccc12 |  | KM mouse, chronic hyperuricaemia model | dose not given, day 11 |  | body weight | 31.4 g and 30.4 g and 30.8 g and 26.8 g and 33.6 g and 30.6 g
